Published values from different studies.
Numbered parts are unrelated; each lists some results of a single study. Changes are numbered by the printed parent chain.

Series 1
Target: RNA binding protein fox-1 homolog 2, RRM domain, GST-SBP tag (RBFOX2, Homo sapiens, UniProt O43251-10, residues 100-194)
Technique: RNA Bind-n-Seq
Molecule type: RNA
Matrix: in vitro
Tested at: 365 nM
Setting: natural RNA segment, single round, ends assumed
Baseline: no-protein control
Direction: higher = stronger binding
Shared flanks, not repeated: GGGAGUUCUACAGUCCGACGAUC … UGGAAUUCUCGGGUGCCAA
Construct (chain): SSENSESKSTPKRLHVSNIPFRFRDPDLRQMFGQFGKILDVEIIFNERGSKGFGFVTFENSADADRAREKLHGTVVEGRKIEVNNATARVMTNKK
For `CUGGAGGGGAAGGUGGGUGGGCGUUCUCUAAGGCACAACACCCCAAAGGCCGACUGUACCCAUGAGAGGUGCCUCACAGCAGGAGACUAAGAUCUGUUGAUGCUCUGAGG`, “RBNS enrichment (R)” read 0.643.
Under “RBNS enrichment (R)”, `GUUGGGAUACACCUAUUAUCCCCUAAAAACAUACAAAUAAUGCAAAAGGAUGAUGGAGCUUCCUGGUGUCGGGUGAACAUGUUUUAAAAACUCAUUGUUCUAGUGAAGAU` is recorded as 0.454.
Under “RBNS enrichment (R)”, `UAGGGCACAAGCCAAGUCUUCAUGCCUUUGGGAAACAUCUGUCGGCCUCCCCACUCUGGUGUCUAUGACUGGCUCCUCAUACCACUGUUUUCCUGACUUCCAGCCUUGCC` is recorded as 0.207.
Under “RBNS enrichment (R)”, `AAAUGGAGUCAGGCGAAGUCCACCUUGUACGCUGCUGUGCGGCUUAGGAAUAAAGUGAAUCUCUUCCAAACUGCCUUUGUGUGAUGGCUCUGUUCCUCCCUUUUUUGGCA` is recorded as 0.418.
Under “RBNS enrichment (R)”, `GUAAACUGGAAAAUCAUGUAUUUCUAAAGGCUGUGUACCUAUAAAUUAGUUGAGAAAGCUCUGUUUCAUUUAGAGUUUUAAAGGAAUAUUCUCUCUUCAAUUAAGGAAUU` is recorded as 0.448.
`GUAAAUAAAAUGGAUGUAAUAUAAGUUGUAAGUAACGUUGUCAAAACUCUGAUCCCGAUGGAGGCUGCACGCCUCCCCCACCCCAUGAUAGCAUCUGUGUGUAUUAAUUC` — result for “RBNS enrichment (R)”: 0.788.
`CAAGAGGGAGAGAGGCUUCAGAACCAGUCCUCCUUUCAUUUCAAAACCCCAGCGGGCCCUCUGGAGUCCGCCCUGCCCCUCCCCCGGCCCCCCAUCCCUCACUUCUGGGC` — result for “RBNS enrichment (R)”: 0.405.
Under “RBNS enrichment (R)”, `CACCUGUCAAUACUUGUUUGUAUUGAUUUCUGAUAUUCUUGCAGCUGACUACGUGUAAUUGGGCAGAUCAGCUUUGCAGUAGAUUAUGCUGCAUCCUCGUGGCAAAAUUC` is recorded as 0.312.

Series 2
Target: CCND2, cyclin fold, Cln2 fusion (human)
Technique: yeast growth competition, sequencing
Matrix: yeast
Setting: weak parent motif
Baseline: not given
Direction: higher = stronger binding
Starting sequence: SLBP docking peptide (human); ARYKRKLLINDFG; partner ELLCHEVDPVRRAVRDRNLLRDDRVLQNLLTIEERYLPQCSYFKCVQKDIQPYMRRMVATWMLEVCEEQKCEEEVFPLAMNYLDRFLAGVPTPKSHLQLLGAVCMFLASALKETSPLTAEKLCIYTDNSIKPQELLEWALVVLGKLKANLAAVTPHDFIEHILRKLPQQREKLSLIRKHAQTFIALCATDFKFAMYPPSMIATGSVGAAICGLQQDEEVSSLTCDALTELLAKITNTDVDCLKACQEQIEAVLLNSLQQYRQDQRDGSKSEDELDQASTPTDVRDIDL
`I9S` — result for “normalised enrichment score”: 0.783.
For `L8F`, “normalised enrichment score” read -0.0634.
Under “normalised enrichment score”, `N10F` is recorded as 0.0706.
For `A1S`, “normalised enrichment score” read 0.321.
`A1Q`: “normalised enrichment score” -0.44.
`R5C`: “normalised enrichment score” 0.218.
Under “normalised enrichment score”, `K4G` is recorded as 0.044.
For `K4T`, “normalised enrichment score” read -0.0976.
For `I9M`, “normalised enrichment score” read 0.237.
`A1L`: “normalised enrichment score” 0.344.
`A1F` — result for “normalised enrichment score”: -0.0305.
Under “normalised enrichment score”, `L8Y` is recorded as 0.117.
Under “normalised enrichment score”, `I9V` is recorded as -0.134.
`F12G` — result for “normalised enrichment score”: 0.288.

Series 3
Target: RING finger protein unkempt homolog, zinc fingers 1-6, GST-SBP tag (UNK, Homo sapiens, UniProt Q9C0B0, residues 30-357)
Technique: RNA Bind-n-Seq
Molecule type: RNA
Matrix: in vitro
Tested at: not given
Setting: RNA with constant flanks, ends assumed
Baseline: input RNA pool
Direction: higher = stronger binding
Shared flanks, not repeated: GGGAGUUCUACAGUCCGACGAUC … CAACAGAGGAUUGAGCAUCA
Residues (chain): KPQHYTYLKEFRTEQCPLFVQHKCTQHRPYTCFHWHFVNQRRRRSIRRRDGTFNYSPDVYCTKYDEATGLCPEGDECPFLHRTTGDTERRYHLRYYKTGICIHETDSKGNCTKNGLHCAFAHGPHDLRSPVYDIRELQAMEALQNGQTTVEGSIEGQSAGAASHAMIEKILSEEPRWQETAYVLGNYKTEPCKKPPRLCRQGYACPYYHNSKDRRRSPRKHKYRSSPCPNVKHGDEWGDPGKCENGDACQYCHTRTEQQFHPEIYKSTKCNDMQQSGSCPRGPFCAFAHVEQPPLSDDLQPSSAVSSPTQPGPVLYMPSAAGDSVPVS
The bound/input enrichment of `AUUAUAAGAGAAACAGAAAAUGAUGAUCUUACAAAUGUAAUUCAGAAAAUGAUCUGUGAAUACCGUGAAGAAGUUACUCCUAUUGCUGUAGAAAUGACACAACAUCUGGCAAUGACAUUU` is reported as 0.105 ratio.
For `GGGAUUUCAUUUAUCUUUUGCUGUUUCCGAAACAAUGACCAUCCAGAAAUCACAUAUCGGCUCCGGAAUGAUAGCAACUUUGCACUUCAGACAAUGGAGCCGGCGCUGCCCAUGCCCCCU`, the bound/input enrichment was 0.0825 ratio.
With `AAUGAAGCUGAAAUAUGUGAGAGCAUGCCCAUGGUCUCUGGAGCACCAGCACAAGGGUUGGCCGCAAGACCAUCCAGUGUGAACUAUAUGGUAGCACCUGUGACAGGUAACGAUGCUGGA` the bound/input enrichment was 0.107 ratio.
`CGAGAAGCUGUUUGCAUCGUCCUUUCUGAUGAUACUUGUUCUGAUGAGAAGAUUCGGAUGAACCGAGUUGUUCGGAAUAACCUUCGUGUACGCCUAGGGGAUGUCAUCAGCAUCCAGCCA` has a bound/input enrichment of 0.0995 ratio.
The bound/input enrichment of `AUUAAACAUUACUUCAGUGUAGUUCCCGGAAAUGUAGGCUCUUCCCCCAGAUCUUCUGAUUCCGUCAAAUUAGCUCAAGAAUGCUGUUACCAUAGCAACAGGGGCAUCGCAGCUCAUGGA` is reported as 0.275 ratio.
`UAACUAUUCAUUUUUAGCUUUUGUCUCCAGUGCAUGAUCUCAUAUUUUUGCUUUUAUUUUCCGUAUAAGAACAUUUAUAAAAUCAUAUUUUUGUUACUGCAAUUGUUUUAUUUGUUGUGU` has a bound/input enrichment of 0.781 ratio.
`CCGGGUCAGCUGAGGUGGACGGCCUCGGCAAGCGGGUUUUUUUCCCCUAGAGUUGUAUAUACCGAGCAUCCUGGACUCCACAAUGAACGGACAGUUGGACCUAAGUGGGAAGCUGAUUAU` gave a bound/input enrichment of 0.534 ratio.

Further values, each from its own experiment
`PhoQ, residues 284 288 289 292 302 303 SCEHLI` gave a fold induction of 1.7 (PhoP, residues 12 14 15 18 19 LWHSL (Escherichia coli, UniProt P23836); Sort-seq, refers to: YFP reporter; E. coli; PhoQ-PhoP variant library, together with: 10 µM Mg2+; baseline: high Mg2+ state, higher = stronger signaling).
